Published values collected from several papers.
Numbered parts are unrelated; each lists some results of a single study.

Set 1
Target: G protein-coupled receptor kinase 5 (GRK5, Homo sapiens, UniProt P34947)
Chain of UniProt P34947 (whole entry, looked up): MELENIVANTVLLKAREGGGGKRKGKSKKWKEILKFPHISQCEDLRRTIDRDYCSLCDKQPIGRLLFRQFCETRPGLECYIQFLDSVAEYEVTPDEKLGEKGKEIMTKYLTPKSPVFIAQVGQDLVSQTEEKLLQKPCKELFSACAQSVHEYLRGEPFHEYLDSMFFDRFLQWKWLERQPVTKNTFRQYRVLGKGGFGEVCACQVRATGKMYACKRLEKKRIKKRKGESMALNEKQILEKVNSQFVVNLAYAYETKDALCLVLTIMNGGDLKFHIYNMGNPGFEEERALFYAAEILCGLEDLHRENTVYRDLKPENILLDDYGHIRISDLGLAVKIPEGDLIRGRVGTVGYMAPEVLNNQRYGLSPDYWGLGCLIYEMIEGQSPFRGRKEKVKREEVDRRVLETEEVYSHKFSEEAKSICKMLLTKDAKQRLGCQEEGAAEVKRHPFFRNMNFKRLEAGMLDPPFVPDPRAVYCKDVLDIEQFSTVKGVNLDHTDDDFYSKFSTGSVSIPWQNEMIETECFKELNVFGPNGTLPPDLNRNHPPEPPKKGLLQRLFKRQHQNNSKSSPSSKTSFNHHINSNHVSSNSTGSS
Effect on: enzyme activity
Action: inhibitor
Concentration: 0.5 µM
Reference: control
Measurement: remaining activity
Compound = CC(C)n1cnc2c(Nc3cccc(Cl)c3)nc(NCCO)nc21; value = 99.4%
Compound = Cc1cc(Nc2cc(N3CCN(C)CC3)nc(Sc3ccc(NC(=O)C4CC4)cc3)n2)[nH]n1; value = 104%
Compound = COc1cc2c(N3CCN(C(=O)Nc4ccc(OC(C)C)cc4)CC3)ncnc2cc1OCCCN1CCCCC1; value = 106%
Compound = CCCCc1c(-c2ccc(OC)cc2)[nH]c2nccnc12; value = 105%
Compound = c1ccc(-c2n[nH]c3c2oc2ccccc23)cc1; value = 123%
Compound = CCCNC(=O)Nc1ccc(Oc2ncnc3cc(OC)c(OC)cc23)cc1Cl; value = 105%
Compound = CCN(CC)CCCCN1c2ccccc2Oc2ccc(Cl)cc21; value = 103%
Compound = O=Nc1c(-c2c(O)[nH]c3cc(Br)ccc23)[nH]c2ccccc12; value = 125%
Compound = FC(F)(F)c1ccc(/C=C/c2nc(COc3ccc(CCCCn4ccnn4)cc3)co2)cc1; value = 109%
Compound = O=C1NC(=O)c2c1c1c3ccccc3[nH]c1n1cncc21; value = 94.4%
Compound = c1ccc2c(-c3ccncc3)c[nH]c2c1; value = 99.2%
Compound = O=C1NC(=O)c2c1c1c3ccccc3[nH]c1c1[nH]c3cc(Br)ccc3c21; value = 97%
Compound = O=C1Nc2ccccc2/C1=C\c1c(Cl)[nH]c2ccccc12; value = 109%
Compound = CCCCc1c(-c2ccc(O)cc2)[nH]c2nccnc12; value = 104%
Compound = Nc1nc(Nc2ccc(S(N)(=O)=O)cc2)nn1C(=S)Nc1c(F)cccc1F; value = 75.6%
Compound = c1cc(-c2cnn3cc(-c4ccc(OCCN5CCCCC5)cc4)cnc23)ccn1; value = 111%
Compound = COc1ccc2c(c1)c(C1=C(c3c[nH]c4ccccc34)C(=O)NC1=O)cn2CCCN(C)C; value = 114%
Compound = NC(=O)c1ccc(-c2nc(-c3ccc4c(c3)OCCO4)c(-c3ccccn3)[nH]2)cc1; value = 102%
Compound = O=Nc1c(-c2c(O)[nH]c3ccccc23)[nH]c2ccccc12; value = 103%
Compound = O=C1Nc2ccc(Br)cc2/C1=C/c1cc2c([nH]1)CCCC2; value = 106%
Compound = CC(C)N(CCC(=O)c1ccc2ccccc2c1)Cc1ccccc1; value = 93.7%
Compound = CC(C)(C)c1nc2c3cc[nH]c(=O)c3c3cc(F)ccc3c2[nH]1; value = 72.9%
Compound = Cc1ccc(S(=O)(=O)/C=C/C#N)cc1; value = 105%
Compound = N#CC(c1ccnc(NCCc2cccnc2)n1)c1nc2ccccc2s1 (stereo not drawn); value = 93.8%
Compound = O=C(O)/C=C/c1cc(Br)c(Br)c(Br)c1Br; value = 104%

Set 2
Technique: PRP chromatography
Setting: linear fit, 1 mL
Measurement: logD 1,9-decadiene/water
Compound = CC(C)C[C@@H]1NC(=O)[C@H](CCC(=O)N2CCCC2)NC(=O)[C@@H](C(C)C)NC(=O)[C@H](C)NC(=O)[C@H](CC(C)C)NC(=O)[C@@H](CC(C)C)NC(=O)[C@H](CC(C)C)NC1=O; value = -0.687 log units
Compound = CC(C)C[C@@H]1NC(=O)[C@@H](C)NC(=O)[C@H](Cc2cscn2)NC(=O)[C@@H](CC(C)C)NC(=O)[C@H](C(C)C)NC(=O)[C@H](CC(C)C)NC(=O)[C@@H](CC(C)C)NC1=O; value = 0.604 log units
Compound = CC(C)C[C@@H]1NC(=O)[C@H](CC(C)C)NC(=O)[C@@H](CC(C)C)NC(=O)[C@@H](C)NC(=O)[C@H](C(C)C)NC(=O)[C@H](Cc2cscn2)NC(=O)[C@H](C)NC1=O; value = -1.84 log units
Compound = CC(C)C[C@@H]1NC(=O)[C@H](C)NC(=O)[C@@H](C(C)C)NC(=O)[C@H](C(C)C)NC(=O)[C@H](CC(C)C)NC(=O)[C@@H](CC(C)C)NC(=O)[C@H](CC(C)C)NC1=O; value = 0.0587 log units
Compound = CC(C)C[C@@H]1NC(=O)[C@H](Cc2cscn2)NC(=O)[C@H](CCC(=O)N2CCCC2)NC(=O)[C@H](CCC(=O)N2CCCC2)NC(=O)[C@@H](Cc2cscn2)NC(=O)[C@H](CC(C)C)NC(=O)[C@@H](CC(C)C)NC1=O; value = -2.14 log units
Compound = CC(C)C[C@@H]1NC(=O)[C@H](CC(C)C)NC(=O)[C@@H](C(C)C)NC(=O)[C@H](C(C)C)NC(=O)[C@H](C(C)C)NC(=O)[C@H](Cc2cscn2)NC(=O)[C@H](C)NC1=O; value = -0.768 log units
Compound = CC(C)C[C@@H]1NC(=O)[C@H](CC(C)C)NC(=O)[C@H](CC(C)C)NC(=O)[C@H](CC(C)C)NC(=O)[C@@H](Cc2cscn2)NC(=O)[C@H](CCC(=O)N2CCCC2)NC(=O)[C@H](C)NC1=O; value = -0.619 log units
Compound = CC(C)C[C@@H]1NC(=O)[C@H](C)NC(=O)[C@H](CC(C)C)NC(=O)[C@@H](CC(C)C)NC(=O)[C@H](CC(C)C)NC(=O)[C@H](C)NC(=O)[C@@H](CC(C)C)NC1=O; value = -0.346 log units
Compound = CC(C)C[C@@H]1NC(=O)[C@H](CCC(=O)N2CCCC2)NC(=O)[C@H](CC(C)C)NC(=O)[C@@H](Cc2cscn2)NC(=O)[C@H](CC(C)C)NC(=O)[C@@H](CC(C)C)NC(=O)[C@H](CC(C)C)NC1=O; value = -0.0786 log units
Compound = CC(C)C[C@@H]1NC(=O)[C@H](CC(C)C)NC(=O)[C@H](CC(C)C)NC(=O)[C@H](C(C)C)NC(=O)[C@@H](CCC(=O)N2CCCC2)NC(=O)[C@H](C)NC(=O)[C@H](C)NC1=O; value = -2.32 log units
Compound = CC(C)C[C@@H]1NC(=O)[C@H](Cc2cscn2)NC(=O)[C@H](CC(C)C)NC(=O)[C@@H](CCC(=O)N2CCCC2)NC(=O)[C@H](CC(C)C)NC(=O)[C@@H](CC(C)C)NC(=O)[C@H](CC(C)C)NC1=O; value = -0.0339 log units

Set 3
Target: Diamine acetyltransferase 1 (Homo sapiens, UniProt P21673)
Action: inhibitor
Concentration: 10 µM
Reference: control
Measurement: remaining activity
Construct (P21673 1-171): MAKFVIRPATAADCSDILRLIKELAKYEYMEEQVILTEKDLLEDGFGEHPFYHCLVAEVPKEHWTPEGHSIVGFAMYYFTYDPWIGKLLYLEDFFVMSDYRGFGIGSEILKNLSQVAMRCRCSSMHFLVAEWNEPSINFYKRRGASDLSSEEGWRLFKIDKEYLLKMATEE
SMILES = COC(=O)C1=CO[C@@H](O[C@@H]2O[C@H](CO)[C@@H](O)[C@H](O)[C@H]2O)[C@@H]2[C@H](C)O[C@@H](O)C[C@H]12; value = 74%
SMILES = O=C(/C=C/c1ccc(O)c(O)c1)O[C@H](Cc1ccc(O)c(O)c1)C(=O)O; value = 89%
SMILES = C[C@H](CC(=O)C[C@@H](C)[C@H]1C[C@H](O)[C@@]2(C)C3=C(C(=O)C[C@]12C)[C@@]1(C)CCC(=O)C(C)(C)[C@@H]1C[C@@H]3O)C(=O)O; value = 85.3%
SMILES = COc1cc(O)c2c(=O)c(O)c(-c3ccc(OC)c(O)c3)oc2c1; value = 112%
SMILES = CC1=CC(=O)CC(C)(C)[C@@]1(O)/C=C/C(C)=C\C(=O)O; value = 103%
SMILES = O=C(O)c1c[nH]c2ccccc12; value = 76%
SMILES = CCCCC/C=C\C/C=C\CCCCCCCC(=O)OCC(O)CO (stereo not drawn); value = 93.4%
SMILES = OCCc1ccc(O)cc1; value = 82.9%
SMILES = C[C@@H](O)[C@H](N)C(=O)O; value = 85%
SMILES = C=CC1(C)CCC(C(C)(C)O)O1 (stereo not drawn); value = 113%
SMILES = C/C=C/C=C/C(=O)O; value = 84.1%

Set 4
Target: 5-hydroxytryptamine receptor 1B (HTR1B, Homo sapiens, UniProt P28222)
Chain of UniProt P28222 (whole entry, looked up): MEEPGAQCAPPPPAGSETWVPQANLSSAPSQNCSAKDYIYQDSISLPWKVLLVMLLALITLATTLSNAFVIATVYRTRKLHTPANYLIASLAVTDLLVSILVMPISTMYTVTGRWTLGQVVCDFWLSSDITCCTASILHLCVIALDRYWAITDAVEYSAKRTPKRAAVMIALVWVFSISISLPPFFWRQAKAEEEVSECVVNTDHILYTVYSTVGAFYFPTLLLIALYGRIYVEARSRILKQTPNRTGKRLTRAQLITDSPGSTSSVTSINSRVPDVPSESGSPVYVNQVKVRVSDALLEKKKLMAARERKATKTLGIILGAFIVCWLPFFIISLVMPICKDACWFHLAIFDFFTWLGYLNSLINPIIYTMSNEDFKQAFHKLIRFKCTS
Effect on: ligand displacement
Technique: radioligand
Concentration: 10 µM
Measurement: inhibition
SMILES = CNCc1ccccc1-c1csc([C@H](C)Nc2nc(C)nc3cc(OC)c(OC)cc23)c1; value = 75%
SMILES = CC1=C(C#N)[C@@H](c2ccc3[nH]nc(C)c3c2)C(C#N)=C(c2ccc(Cl)cc2)N1; value = 17.2%
SMILES = Cc1c(C(=O)O)cc(-c2ccc(C3CCNCC3)cc2)c2ccc(-c3ccc(C(F)(F)F)cc3)cc12; value = 14.4%
SMILES = CCCCN(CCCC)C(=O)CN1C[C@H](c2cc(OC)c3c(c2)OCO3)[C@@H](C(=O)O)[C@@H]1CC(C)(C)CCC; value = 2.64%
SMILES = CCNC(=O)c1cc2c(N3CCOC[C@@H]3C)ccnc2[nH]1; value = -1.66%
SMILES = O=C(Nc1cccnn1)N1CCC(=Cc2cccc(Oc3ccc(C(F)(F)F)cn3)c2)CC1; value = 24.4%
SMILES = Cn1nc(C(=O)NCc2ccc(C(=O)O)cc2)cc1-c1ccc2[nH]ccc2c1; value = 5.48%
